{"data": "Results gathered from unrelated publications", "cell line": "A549", "note": "Compare with care: the assays were run in different laboratories. ± marks the error that the study gave."}
{"SMILES": "CC(C)=CCCC(C)(O)C1CCC2(C)C1C(O)CC1C3(C)CCC(OC4OC(COC(=O)CCCCCCCCCCN5C(=O)C=CC5=O)C(O)C(OC(=O)CCCCCCCCCCN5C(=O)C=CC5=O)C4O)C(C)(C)C3CCC12C (centres unmarked)", "assay": "MTT", "setting": "5 to 100 µM", "endpoint": "cytotoxicity", "value": "not toxic"}
{"SMILES": "COc1cc2c(cc1O)[C@]1(O)C(=O)c3c(O)cc4c(c3O[C@@H]1CO2)C=CC(C)(C)O4", "assay": "cell growth or viability, MTT", "setting": "100 µg/mL", "endpoint": "viability", "value": "4.85%"}
{"SMILES": "FC(F)(F)c1ccnc(-c2cc(C(F)(F)F)ccn2)c1.FC(F)(F)c1ccnc(-c2cc(C(F)(F)F)ccn2)c1.[Cl-].[Cl-].[Ru+2].c1cnc2c(c1)ccc1cccnc12", "assay": "resazurin", "setting": "concentration not given, normoxia, visible light", "endpoint": "photocytotoxicity", "value": "inactive"}
{"SMILES": "NCc1ccc(NC(=O)c2cc3ccccc3cc2O)cc1", "setting": "48 h", "endpoint": "CC50", "value": "> 40 µM"}
{"SMILES": "CCCCn1cc(C(=O)O)c(=O)c2cc(F)c3c(nnn3-c3cccc(OC)c3)c21", "assay": "cell growth, SRB", "setting": "72 h", "endpoint": "IC50", "value": "70.5 ± 5.28 µg/mL"}
{"SMILES": "Cc1cc(N)c2cc(NC(=O)c3ccc4c(-c5ccccc5O)cccc4c3)ccc2n1", "assay": "cell growth or viability, MTS", "endpoint": "CC50", "value": "27.3 µM"}
{"SMILES": "[Cl-].[Cl-].[Ru+2].c1ccc(-c2ccnc3c2ccc2c(-c4ccccc4)ccnc23)cc1.c1cnc2c(c1)ccc1cccnc12.c1cnc2c(c1)ccc1cccnc12", "assay": "resazurin", "setting": "72 h, added: 450 nm light, 29.1 J/cm2", "scale": "baseline: dark IC50 over light IC50", "endpoint": "phototoxicity index", "value": 14.8}
{"SMILES": "CC(C)=CCc1c2c(c(O)c3c(=O)c(-c4ccc(O)cc4)coc13)CC(C(C)(C)O)O2 (centres unmarked)", "assay": "cell growth or viability, MTT", "setting": "12.5 µg/mL", "endpoint": "viability", "value": "112%"}
{"SMILES": "COc1ccc2ccc(C(=O)Nc3ccc(CN)cc3)c(O)c2c1", "setting": "48 h", "endpoint": "CC50", "value": "> 40 µM"}
{"SMILES": "CSCc1ccccn1.F[P-](F)(F)(F)(F)F.F[P-](F)(F)(F)(F)F.[Ru+2].c1ccc(-c2ccccn2)nc1.c1ccc(-c2ccnc3c2ccc2c(-c4ccccc4)ccnc23)cc1", "setting": "24 h, near dark EC50", "scale": "baseline: intracellular over incubation concentration", "endpoint": "cellular accumulation ratio", "value": 5}
{"SMILES": "CCCCn1cc(C(=O)O)c(=O)c2cc(F)c3c(nnn3-c3ccc(OC)cc3)c21", "assay": "cell growth or viability, SRB", "endpoint": "IC50", "value": "125 µM"}
{"SMILES": "CCCC1OC2CC3C4CCC5=CC(=O)C=CC5(C)C4C(O)CC3(C)C2(C(=O)COC(=O)CN2CCOCC2)O1 (centres unmarked)", "assay": "MTT", "setting": "72 h", "endpoint": "IC5", "value": "43.3 ± 0.42 nM"}
{"SMILES": "COc1ccc(-c2coc3c(CC=C(C)C)c(O)c(CC=C(C)C)c(O)c3c2=O)cc1O", "assay": "cell growth or viability, MTT", "setting": "50 µg/mL", "endpoint": "viability", "value": "27.1%"}
{"SMILES": "CCCCn1cc(C(=O)O)c(=O)c2cc(F)c(Nc3cccc(OC)c3)c([N+](=O)[O-])c21", "assay": "cell growth or viability, SRB", "endpoint": "IC50", "value": "80 µM"}
{"SMILES": "CC(=O)OCC1=CCC2[C@]3(C)COC(c4ccccc4)O[C@@H]3CC[C@@]2(C)[C@@H]1/C=C/C1=CCOC1=O (some centres unmarked)", "assay": "MTT", "setting": "20 µM, 48 h, 10% FBS", "endpoint": "growth inhibition", "value": "48.22 ± 0.27%"}
{"SMILES": "CCN1CCC2(CC1)C/C(=N\\NC(=O)Nc1ccccc1)c1ccccc1O2", "assay": "cell growth, MTT", "setting": "48 h", "endpoint": "IC50", "value": "1.9 ± 0.09 µM"}
{"SMILES": "N=C(NO)NN=Cc1nccc2c([N+](=O)[O-])cccc12", "assay": "morphology", "endpoint": "cytotoxic concentration", "value": "> 50 µM"}
{"SMILES": "CCCCn1cc(C(=O)O)c(=O)c2cc(F)c3c(nnn3-c3ccccc3OC)c21", "assay": "cell growth, SRB", "setting": "72 h", "endpoint": "IC50", "value": "54.4 ± 9.51 µg/mL"}
{"SMILES": "CC1(C)[C@@H](O)CC[C@]2(C)[C@H]3CC=C4[C@@H]5C[C@](C)(CO)CC[C@]5(C(=O)O)CC[C@@]4(C)[C@]3(C)CC[C@@H]12", "assay": "cell growth or viability, MTT", "setting": "72 h", "endpoint": "IC50", "value": "> 100 µM"}
{"SMILES": "CCCCn1cc(C(=O)O)c(=O)c2cc(F)c(Nc3cc(OC)c(OC)c(OC)c3)c([N+](=O)[O-])c21", "assay": "cell growth or viability, SRB", "endpoint": "IC50", "value": "45.1 µM"}
{"SMILES": "[Cl-].[Cl-].[Ru+2].c1ccc(-c2ccccn2)nc1.c1ccc(-c2ccccn2)nc1.c1ccc(-c2ccccn2)nc1", "assay": "resazurin", "setting": "72 h, added: 450 nm light, 29.1 J/cm2", "scale": "baseline: dark IC50 over light IC50", "endpoint": "phototoxicity index", "value": "> 11.6"}
{"SMILES": "Cc1ccc(O)c(C=NNC(=N)NO)n1", "assay": "cell morphology", "setting": "up to 150 µM", "endpoint": "cytotoxicity", "value": "not toxic"}
{"SMILES": "CC(C)=CCc1cc(-c2coc3cc(O)c(CC=C(C)C)c(O)c3c2=O)ccc1O", "assay": "cell growth or viability, MTT", "setting": "50 µg/mL", "endpoint": "viability", "value": "55.8%"}
{"SMILES": "[Cl-].[Cl-].[Ru+2].c1ccc2nc(-c3ccc4ccccc4n3)ccc2c1.c1ccc2nc(-c3ccc4ccccc4n3)ccc2c1.c1cnc2c(c1)ccc1cccnc12", "assay": "resazurin", "setting": "72 h, added: 450 nm light, 29.1 J/cm2", "scale": "baseline: dark IC50 over light IC50", "endpoint": "phototoxicity index", "value": 3.4}
{"SMILES": "C[C@@]1(CO)CC[C@]2(C(=O)O)CC[C@]3(C)C(=CCC4[C@@]5(C)C[C@@H](O)[C@H](O)[C@@](C)(CO)C5CC[C@]43C)C2C1 (some centres unmarked)", "assay": "cell growth or viability, MTT", "setting": "72 h", "endpoint": "IC50", "value": "> 100 µM"}
{"SMILES": "CC[C@H](C)[C@H](NC(=O)[C@H](CCCCN)NC(=O)[C@H](CCC(=O)O)NC(=O)[C@H](CCCCN)NC(=O)[C@H](CO)NC(=O)[C@H](CCCCN)NC(=O)[C@H](CCCNC(=N)N)NC(=O)[C@H](Cc1ccccc1)NC(=O)[C@H](Cc1ccccc1)NC(=O)[C@H](CC(=O)O)NC(=O)CNC(=O)[C@H](CC(C)C)NC(=O)[C@@H](N)CC(C)C)C(=O)NCC(=O)N[C@@H](CCCCN)C(=O)N[C@@H](CCC(=O)O)C(=O)N[C@@H](Cc1ccccc1)C(=O)N[C@@H](CCCCN)C(=O)N[C@@H](CCCNC(=N)N)C(=O)N[C@H](C(=O)N[C@H](C(=O)N[C@@H](CCC(N)=O)C(=O)N[C@@H](CCCNC(=N)N)C(=O)N[C@H](C(=O)N[C@@H](CCCCN)C(=O)N[C@@H](CC(=O)O)C(=O)N[C@@H](Cc1ccccc1)C(=O)N[C@@H](CC(C)C)C(=O)N[C@@H](CCCNC(=N)N)C(=O)N[C@@H](CC(N)=O)C(=O)N[C@@H](CC(C)C)C(=O)N[C@H](C(=O)N1CCC[C@H]1C(=O)N[C@@H](CCCNC(=N)N)C(=O)N[C@H](C(=O)N[C@@H](CCC(=O)O)C(=O)N[C@@H](CO)C(=O)O)[C@@H](C)O)C(C)C)[C@@H](C)CC)C(C)C)[C@@H](C)CC", "assay": "LDH release", "setting": "24 h, 37 °C, 10% human AB serum", "endpoint": "highest non-toxic concentration", "value": "< 200 µg/mL"}
{"note": "A few entries again:"}
{"SMILES": "CSCc1ccccn1.F[P-](F)(F)(F)(F)F.F[P-](F)(F)(F)(F)F.[Ru+2].c1ccc(-c2ccccn2)nc1.c1ccc(-c2ccnc3c2ccc2c(-c4ccccc4)ccnc23)cc1", "setting": "24 h, near dark EC50", "scale": "baseline: intracellular over incubation concentration", "endpoint": "cellular accumulation ratio", "value": 5}
{"SMILES": "C[C@@]1(CO)CC[C@]2(C(=O)O)CC[C@]3(C)C(=CCC4[C@@]5(C)C[C@@H](O)[C@H](O)[C@@](C)(CO)C5CC[C@]43C)C2C1 (some centres unmarked)", "assay": "cell growth or viability, MTT", "setting": "72 h", "endpoint": "IC50", "value": "> 100 µM"}
